Assay results of several laboratories.
Each line is one published result; not all experiments were run side by side. “And” joins repeats or separate records; there may be more than shown. ± gives the spread as reported.

`COc1cc([C@@H]2c3cc4c(cc3C[C@H]3COC(=O)[C@@H]32)OCO4)cc(OC)c1OC` — result for viability: “decreased” (neuroblastoma M2, MYCN overexpressing; SRB; concentration not given, 48 h, together with: doxycycline).
The inhibition of `C[C@H]1CCC/C=C/[C@@H]2C[C@H](O)C[C@H]2[C@H](O)/C=C/C(=O)O1` is reported as 94.1% (BT-16; cell viability, MTT; 10 µM, 72 h).
For `CN[C@@H]1C[C@H]2O[C@@](C)([C@@H]1OC)n1c3ccccc3c3c4c(c5c6ccccc6n2c5c31)C(=O)NC4`, the ATP level was 19.7% (iCell Cardiomyocytes (hiPSC-derived); CellTiter-Glo; concentration not given, 24 h; relative to: control).
`O=C1C2CC=CCC2C(=O)N1SC(Cl)(Cl)Cl` (centres unmarked) gave an activity score of 3.7 (human iPSC-derived cardiomyocytes; MyBP-C/MYH ratio, plate-normalised SD score; concentration not given, primary screen; direction not given).
For `COCCCn1c(N)c(C(=O)NC2CCCC2)c2nc3ccccc3nc21`, the viability was 128% (HBL-1; 0.1 µM, 120 h).
Under “neurite process number”, `O=c1cc(-c2ccc(O)cc2)oc2cc(O)cc(O)c12` is recorded as 3.5 to 3.6 (induced SH-SY5Y Aβ-GFP cells; 5 µM).
With `COc1ccc2c(c1)[nH]c1c(C)nccc12` the methylation reduction was 1.74% (DU-145; bisulfite pyrosequencing, item: RASSF1A promoter CpG site 21; concentration not given; relative to: vehicle).
`Cn1cncc1C1=CN(c2ncnc3[nH]cnc23)CCS1` has a CC50 of over 200 µM (NCI-H522; lung cancer).
For `O=S(=O)(c1ccc(O)cc1)c1ccc(O)cc1`, “G2 phase cells” read 20.5 ± 6.92% (HepG2 spheroids; Hoechst flow cytometry; 0.1 µM, 24 h).
`CN1CCN(C2(CNC3CCN(c4cccc(-c5cc6cc(F)ccc6[nH]5)c4)CC3)CCC2)CC1` has a GI50 of 300 nM (LOX IMVI).
With `COc1cc(CCC[P+](c2ccccc2)(c2ccccc2)c2ccccc2)c(OC)c2c1OCO2.[I-]` the GI50 was -4.87 log M (HCT-15; SRB).
`COc1c(C)c2c(c(O)c1C/C=C(\C)CCC(=O)O)C(=O)OC2` has an IC50 of 1050 nM (brain cancer cell lines; cell proliferation; average over lines).
For `CC[C@H](C)[C@H](NC(=O)CN)C(=O)NCC(=O)N[C@@H](C)C(=O)N[C@H](C(=O)N[C@@H](CC(C)C)C(=O)N[C@@H](CCCCN)C(=O)N[C@H](C(=O)N[C@@H](CC(C)C)C(=O)N[C@@H](C)C(=O)N[C@H](C(=O)NCC(=O)N[C@@H](CC(C)C)C(=O)N1CCC[C@H]1C(=O)N[C@H](C(=O)N[C@@H](CC(C)C)C(=O)N[C@H](C(=O)N[C@@H](CO)C(=O)N[C@@H](Cc1c[nH]c2ccccc12)C(=O)N[C@H](C(=O)N[C@@H](CS)C(N)=O)[C@@H](C)CC)[C@@H](C)CC)[C@@H](C)O)[C@@H](C)O)C(C)C)[C@@H](C)CC`, the EC50 was 30 µM (human red blood cells; pH 7.4; relative to: Triton X-100).
The activity score of `Oc1cc(Cl)ccc1Oc1ccc(Cl)cc1Cl` is reported as 17 (human iPSC-derived cardiomyocytes; MyBP-C/MYH ratio, plate-normalised SD score; concentration not given, primary screen; direction not given).
`C/C=C(/C)C(=O)O[C@H]1C(C)=C2[C@H]([C@@H]1OC(=O)CCCCCCC)[C@@](C)(OC(C)=O)C[C@H](OC(=O)CCC)[C@@]1(O)[C@H]2OC(=O)[C@@]1(C)O` — result for “log2 fold change”: 1.17 (HEK293T; RNA-seq, item: CARS mRNA; 10 µM, 6 h; relative to: vehicle).
With `CN(C)NC(=O)CCC(=O)O` the viability was 104% (HBL-1; 1 µM, 120 h).
With `Nc1ncc(-c2nc(N3CCOCC3)nc(N3CCOCC3)n2)c(C(F)F)n1` the GI50 was 728 nM (DLD-1; 72 h).
The fold change of `O=C1N(Cc2ccccc2Cl)c2ccccc2C12NN=C(c1ccccc1)S2` (centres unmarked) is reported as 1.52 (MDA-MB-468; gene expression array, item: INHBE mRNA; 10 µM, 12 h; relative to: untreated, up).
`CS(=O)(=O)c1ccc(-c2nnc(/C=C/c3nnc(-c4ccc(C#N)cc4)o3)n2-c2ccccc2Cl)nc1` has a Hill slope of -1.73 (Apc Q1405X mutant organoids; organoid viability, AlamarBlue; mouse small intestinal organoids; 6 days, Tnks genotype Tnks+/-).
`CC1=CC(=O)c2c(O)cccc2C1=O` has an activity score of 3.9 (human iPSC-derived cardiomyocytes; MyBP-C/MYH ratio, plate-normalised SD score; concentration not given, primary screen; direction not given).
`Nc1ncnc2c1ncn2[C@@H]1O[C@@H]2COP(=O)(O)O[C@H]3[C@@H](O)[C@H](n4cnc5c(=O)[nH]cnc54)O[C@@H]3COP(=O)(O)O[C@H]2[C@H]1O`: “pathway fold enrichment” 10.4 (HFF-1; RNA sequencing, item: Reactome R-HSA-3560782; downregulated pathway; relative to: Zika virus alone).
`COc1c(CCC[P+](c2ccccc2)(c2ccccc2)c2ccccc2)cc2c(c1OC)OCO2.[I-]` gave an LC50 of over -4 log M (K562; SRB).
With `O=C1Nc2ccc3ncsc3c2/C1=C/c1cnc[nH]1` the inhibition was 13% (HeLa expressing Ub(G76V)-GFP; Ub(G76V)-GFP degradation, cycloheximide chase; 12 µM).
With `CC(C)C[C@H](NC(=O)[C@H](CCc1ccccc1)NC(=O)CN1CCOCC1)C(=O)N[C@@H](Cc1ccccc1)C(=O)N[C@@H](CC(C)C)C(=O)[C@@]1(C)CO1` the fold change was -1430 (patient tumour conditionally reprogrammed cells; RNA-seq, item: EYA4 mRNA; human; concentration not given; relative to: DMSO).
Under “S phase cells”, `Oc1ccc(C(c2ccc(O)cc2)(C(F)(F)F)C(F)(F)F)cc1` is recorded as 11 ± 4.92% (HepG2 spheroids; Hoechst flow cytometry; 0.10 µM, 96 h).
`Nc1nc(N)nc(NC2CC2)n1` has an activity score of 3.1 (human iPSC-derived cardiomyocytes; MyBP-C/MYH ratio, plate-normalised SD score; concentration not given, primary screen; direction not given).
`CC[C@H](C)[C@H](NC(=O)[C@H](C)NC(=O)[C@H](CCCCN)NC(=O)[C@H](CC(C)C)NC(=O)[C@H](C)NC(=O)[C@@H](NC(=O)[C@H](Cc1c[nH]cn1)NC(=O)[C@H](CC(C)C)NC(=O)[C@@H](NC(=O)[C@@H](NC(=O)[C@H](CCCCN)NC(=O)[C@@H](NC(=O)[C@H](C)NC(=O)[C@H](CCCCN)NC(=O)[C@H](CCCCN)NC(=O)[C@H](Cc1ccccc1)NC(=O)[C@@H](NC(=O)[C@H](CCCCN)NC(=O)[C@H](CC(C)C)NC(=O)[C@H](Cc1ccccc1)NC(=O)[C@H](CO)NC(=O)[C@H](CCCCN)NC(=O)[C@H](Cc1c[nH]c2ccccc12)NC(=O)[C@@H](N)CCCCN)[C@@H](C)O)C(C)C)[C@@H](C)O)C(C)C)[C@@H](C)O)C(=O)N[C@@H](CO)C(=O)N[C@@H](CO)C(=O)N[C@@H](CS)C(N)=O` gave an EC50 of 22 µM (human red blood cells; pH 5.5; relative to: Triton X-100).
With `CCN(CC)c1ccc(C=NNC(=O)CSc2nc3ccccc3c(=O)n2Cc2ccc(S(N)(=O)=O)cc2)c(O)c1` the CC50 was over 100 µM (NCI-H522; NCI five-dose screen).
For `CN1CCN(S(=O)(=O)c2cc([N+](=O)[O-])ccc2N(CCOS(C)(=O)=O)CCOS(C)(=O)=O)CC1`, the IC50 was 3860 nM (sample DC T-ALL PDX cells; cell viability; ex vivo; 48 h, together with: AKR1C3 inhibitor 1 µM, 1 h pretreatment).
`CC(C)N1CCC(NC2CCN(c3cccc(-c4cc5cc(F)ccc5[nH]4)c3)CC2)CC1` gave a GI50 of 1430 nM (NCI-H522).
For `Cc1ccc2cc3c(ccc4ccccc43)c3c2c1CC3`, “relative colony forming efficiency” read 5 ± 3% (BALB/c 3T3; 15 µM, positive control; relative to: solvent control).
The EC50 of `CC[C@H](C)[C@H](NC(=O)CN)C(=O)NCC(=O)N[C@@H](C)C(=O)N[C@H](C(=O)N[C@@H](CC(C)C)C(=O)N[C@@H](CCCCN)C(=O)N[C@H](C(=O)N[C@@H](CC(C)C)C(=O)N[C@H](C(=O)N[C@H](C(=O)NCC(=O)N[C@@H](CC(C)C)C(=O)N1CCC[C@H]1C(=O)N[C@@H](C)C(=O)N[C@@H](CC(C)C)C(=O)N[C@H](C(=O)N[C@@H](CO)C(=O)N[C@@H](Cc1c[nH]c2ccccc12)C(=O)N[C@H](C(=O)N[C@@H](CCCCN)C(=O)N[C@@H](CCCNC(=N)N)C(=O)N[C@@H](CCCCN)C(=O)N[C@@H](CCCNC(=N)N)C(=O)N[C@@H](CCC(N)=O)C(=O)N[C@@H](CCC(N)=O)C(=O)N[C@@H](CS)C(N)=O)[C@@H](C)CC)[C@@H](C)CC)[C@@H](C)O)[C@@H](C)O)C(C)C)C(C)C` is reported as 6 µM (human red blood cells; pH 7.4; relative to: Triton X-100).
With `CC(C)=CCC[C@]1(C)C=Cc2c(O)c3c(c(CC=C(C)C)c2O1)O[C@]12C(=C[C@@H]4C[C@H]1C(C)(C)O[C@@]2(C/C=C(/C)C(=O)O)C4=O)C3=O` the activity score was 9.3 (human iPSC-derived cardiomyocytes; MyBP-C/MYH ratio, plate-normalised SD score; concentration not given, primary screen; direction not given).
`CC(c1ccccc1)(c1ccc(O)cc1)c1ccc(O)cc1` — result for “G1 phase cells”: 73.6 ± 4.63% (HepG2 spheroids; Hoechst flow cytometry; 10 µM, 24 h).
With `CC(C)=CCC[C@](C)(O)[C@H]1CC[C@]2(C)[C@@H]1[C@H](O)C[C@@H]1[C@@]3(C)CC[C@H](O)C(C)(C)[C@@H]3[C@@H](O[C@@H]3O[C@H](CO)[C@@H](O)[C@H](O)[C@H]3O)C[C@]12C` the optical density was 1.16 a.u. and 1.28 a.u. and 1.32 a.u. and 1.26 a.u. and 1.17 a.u. and 1.3 a.u. (HepG2; cell viability, CCK-8; 12.5 µM; higher = more viable cells).
